Experimental data pooled from the literature.
Lines come from different studies, so protocols differ. ± marks the error that the study gave.
Spike glycoprotein: Spike glycoprotein (Severe acute respiratory syndrome coronavirus 2, UniProt P0DTC2)
B1: cytochrome c peroxidase H52E; sequence looked up; chain TTPLVHVASVEKGRSYEDFQKVYNAIALKLREDDEYDNYIGYGPVLVRLAWETSGTWDKHDNTGGSYGGTYRFKKEFNDPSNAGLQNGFKFLEPIHKEFPWISSGDLFSLGGVTAVQEMQGPKIPWRCGRVDTPEDTTPDNGRLPDADKDADYVRTFFQRLNMNDREVVALMGAHALGKTHLKNSGYEGPWGAANNVFTNEFYLNLLNEDWKLEKNDANNEQWDSKSGYMMLPTDYSLIQDPKYLSIVKEYANDQDKFFKDFSKAFEKLLENGITFPKDAPSPFIFKTLEEQGL
Sequence of UniProt P20813 (whole entry, looked up): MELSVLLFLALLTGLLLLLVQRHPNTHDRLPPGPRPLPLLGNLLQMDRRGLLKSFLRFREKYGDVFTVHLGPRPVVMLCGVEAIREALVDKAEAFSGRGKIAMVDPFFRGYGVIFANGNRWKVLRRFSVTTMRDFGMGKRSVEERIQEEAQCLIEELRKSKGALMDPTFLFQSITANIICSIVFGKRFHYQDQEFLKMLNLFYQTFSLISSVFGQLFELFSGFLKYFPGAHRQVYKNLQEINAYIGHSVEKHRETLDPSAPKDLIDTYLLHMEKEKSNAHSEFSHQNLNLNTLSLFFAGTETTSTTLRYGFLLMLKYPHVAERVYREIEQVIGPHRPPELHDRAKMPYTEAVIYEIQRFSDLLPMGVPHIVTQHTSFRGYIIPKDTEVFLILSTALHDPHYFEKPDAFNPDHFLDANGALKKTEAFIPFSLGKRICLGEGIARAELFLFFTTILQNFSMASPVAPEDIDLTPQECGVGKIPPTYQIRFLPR
Sequence of UniProt P0A8T7 (whole entry, looked up): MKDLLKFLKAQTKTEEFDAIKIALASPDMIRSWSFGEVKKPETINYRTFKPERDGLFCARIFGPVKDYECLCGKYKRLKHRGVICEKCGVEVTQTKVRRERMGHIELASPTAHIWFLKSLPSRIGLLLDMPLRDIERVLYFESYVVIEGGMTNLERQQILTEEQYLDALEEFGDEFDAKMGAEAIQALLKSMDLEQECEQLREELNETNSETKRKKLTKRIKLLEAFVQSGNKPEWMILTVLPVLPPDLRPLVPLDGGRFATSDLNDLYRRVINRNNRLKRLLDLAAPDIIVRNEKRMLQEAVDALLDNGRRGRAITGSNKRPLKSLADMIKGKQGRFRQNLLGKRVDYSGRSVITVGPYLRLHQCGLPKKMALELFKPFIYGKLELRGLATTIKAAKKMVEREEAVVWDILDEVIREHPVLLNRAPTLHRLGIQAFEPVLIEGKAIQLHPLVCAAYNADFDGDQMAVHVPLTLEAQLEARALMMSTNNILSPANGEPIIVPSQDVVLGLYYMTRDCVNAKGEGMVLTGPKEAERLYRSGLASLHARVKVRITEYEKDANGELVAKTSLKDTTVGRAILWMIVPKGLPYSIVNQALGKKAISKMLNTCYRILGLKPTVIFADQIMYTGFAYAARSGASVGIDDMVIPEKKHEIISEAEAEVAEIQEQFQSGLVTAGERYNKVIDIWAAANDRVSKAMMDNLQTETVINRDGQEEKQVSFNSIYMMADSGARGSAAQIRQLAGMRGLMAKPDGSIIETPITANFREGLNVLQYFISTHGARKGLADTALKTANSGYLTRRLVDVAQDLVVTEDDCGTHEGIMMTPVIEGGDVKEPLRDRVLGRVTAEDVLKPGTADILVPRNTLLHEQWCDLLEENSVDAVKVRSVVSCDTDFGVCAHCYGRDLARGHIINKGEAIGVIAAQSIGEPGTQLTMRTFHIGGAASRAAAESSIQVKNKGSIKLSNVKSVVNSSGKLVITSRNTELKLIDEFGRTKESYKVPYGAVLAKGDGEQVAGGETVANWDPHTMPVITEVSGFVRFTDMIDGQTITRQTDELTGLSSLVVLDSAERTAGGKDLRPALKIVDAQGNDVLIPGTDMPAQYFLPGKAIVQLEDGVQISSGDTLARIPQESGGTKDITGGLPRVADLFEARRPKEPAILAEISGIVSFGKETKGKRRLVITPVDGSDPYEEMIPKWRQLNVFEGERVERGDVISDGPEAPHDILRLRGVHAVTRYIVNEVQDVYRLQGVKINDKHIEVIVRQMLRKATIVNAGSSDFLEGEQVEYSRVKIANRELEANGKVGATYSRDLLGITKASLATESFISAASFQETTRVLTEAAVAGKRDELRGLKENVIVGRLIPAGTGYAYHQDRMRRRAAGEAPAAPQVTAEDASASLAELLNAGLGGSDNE
Sequence of UniProt P0A8V2 (whole entry, looked up): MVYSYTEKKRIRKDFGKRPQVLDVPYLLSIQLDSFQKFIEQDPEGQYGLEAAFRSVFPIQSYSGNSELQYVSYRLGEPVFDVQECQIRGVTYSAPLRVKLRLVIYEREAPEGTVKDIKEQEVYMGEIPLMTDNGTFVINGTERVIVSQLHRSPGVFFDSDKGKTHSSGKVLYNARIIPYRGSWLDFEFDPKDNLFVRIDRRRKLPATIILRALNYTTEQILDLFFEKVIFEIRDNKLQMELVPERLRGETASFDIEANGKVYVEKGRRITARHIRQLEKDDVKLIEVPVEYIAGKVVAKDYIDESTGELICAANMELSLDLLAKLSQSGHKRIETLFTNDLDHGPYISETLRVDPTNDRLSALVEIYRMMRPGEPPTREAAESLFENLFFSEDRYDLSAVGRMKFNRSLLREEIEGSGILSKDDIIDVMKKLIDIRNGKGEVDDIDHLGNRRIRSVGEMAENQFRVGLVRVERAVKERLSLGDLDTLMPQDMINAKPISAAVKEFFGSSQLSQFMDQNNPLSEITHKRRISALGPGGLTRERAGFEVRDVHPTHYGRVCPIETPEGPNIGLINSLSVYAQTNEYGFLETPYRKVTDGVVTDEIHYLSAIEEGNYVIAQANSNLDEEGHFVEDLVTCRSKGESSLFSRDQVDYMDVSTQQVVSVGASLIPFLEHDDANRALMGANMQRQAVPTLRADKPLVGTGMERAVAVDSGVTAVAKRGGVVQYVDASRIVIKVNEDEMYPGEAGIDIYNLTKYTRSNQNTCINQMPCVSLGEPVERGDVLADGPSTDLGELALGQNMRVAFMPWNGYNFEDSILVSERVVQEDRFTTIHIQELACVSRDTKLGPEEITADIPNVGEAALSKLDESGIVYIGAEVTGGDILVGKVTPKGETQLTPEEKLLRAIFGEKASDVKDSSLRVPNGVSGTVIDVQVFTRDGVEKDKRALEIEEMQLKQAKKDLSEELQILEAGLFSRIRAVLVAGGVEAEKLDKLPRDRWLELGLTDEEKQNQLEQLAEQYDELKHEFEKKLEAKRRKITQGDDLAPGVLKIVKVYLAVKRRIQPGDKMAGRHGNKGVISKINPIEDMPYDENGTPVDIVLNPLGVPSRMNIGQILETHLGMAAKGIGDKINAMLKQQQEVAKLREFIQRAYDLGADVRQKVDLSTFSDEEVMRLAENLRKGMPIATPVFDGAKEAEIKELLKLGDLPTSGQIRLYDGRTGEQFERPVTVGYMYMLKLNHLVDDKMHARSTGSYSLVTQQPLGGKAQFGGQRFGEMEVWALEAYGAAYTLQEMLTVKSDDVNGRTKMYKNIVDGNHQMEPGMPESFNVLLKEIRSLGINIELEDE

Molecule	target or system	assay	test system	conditions	how to read	quantity	value
Nc1ncnc2c([C@@H]3N[C@H](CO)[C@@H](O)[C@H]3O)c[nH]c12	Zaire ebolavirus	viral replication, inhibitor	human Macrophage	0.8 µM		inhibition	1.8%
Nc1ncnc2c1c(I)cn2[C@@H]1O[C@H](CO)[C@@H](O)[C@H]1O	HEK293T	reporter gene, firefly luciferase		24 h, together with: Marburg VP24		IC50	0.44 µM
CC[C@H](CC[C@@H](C)[C@H]1CC[C@H]2[C@@H]3CC=C4C[C@@H](O[C@@H]5O[C@H](CO)[C@@H](O)[C@H](O)[C@H]5O)CC[C@]4(C)[C@H]3CC[C@]12C)C(C)C	Spike glycoprotein	binding, BLI				Kd	130 µM
CC[C@H](C)[C@H](NC(=O)[C@H](CC(C)C)NC(=O)[C@H](Cc1c[nH]c2ccccc12)NC(=O)[C@H](CCC(N)=O)NC(=O)[C@@H](NC(=O)[C@H](Cc1ccccc1)NC(=O)[C@H](C)NC(=O)[C@H](CCCCNC(=O)COCCOCCNC(=O)COCCOCCNC(=O)CC[C@H](NC(=O)CCCCCCCCCCCCCCCCCCC(=O)O)C(=O)O)NC(=O)[C@H](CCC(N)=O)NC(=O)[C@H](C)NC(=O)[C@@H](NC(=O)[C@H](CCCCN)NC(=O)[C@H](CC(=O)O)NC(=O)[C@H](CC(C)C)NC(=O)C(C)(C)NC(=O)[C@@H](NC(=O)[C@H](CO)NC(=O)[C@H](Cc1ccc(O)cc1)NC(=O)[C@H](CC(=O)O)NC(=O)[C@H](CO)NC(=O)[C@@H](NC(=O)[C@H](Cc1ccccc1)NC(=O)[C@@H](NC(=O)CNC(=O)[C@H](CCC(=O)O)NC(=O)C(C)(C)NC(=O)[C@@H](N)Cc1ccc(O)cc1)[C@@H](C)O)[C@@H](C)O)[C@@H](C)CC)[C@@H](C)CC)C(C)C)C(=O)N[C@@H](C)C(=O)NCC(=O)NCC(=O)N1CCC[C@H]1C(=O)N[C@@H](CO)C(=O)N[C@@H](CO)C(=O)NCC(=O)N[C@@H](C)C(=O)N1CCC[C@H]1C(=O)N1CCC[C@H]1C(=O)N1CCC[C@H]1C(=O)N[C@@H](CO)C(N)=O			healthy human subjects, serum	1.5 mg multiple ascending, baseline		total ALT	33.7 ± 18.5 U/L
CSCC[C@H](N)C(=O)N[C@@H](CC(=O)O)C(=O)N[C@H](C(=O)N[C@@H](CCC(N)=O)C(=O)N[C@@H](Cc1c[nH]c2ccccc12)C(=O)N[C@@H](CCCNC(=N)N)C(=O)N[C@@H](CCCNC(=N)N)C(=O)N[C@@H](Cc1c[nH]c2ccccc12)C(=O)O)[C@@H](C)O	Toxin B, glucosyltransferase domain (Clostridioides difficile, UniProt A0A9R0CDJ3)	glucosyltransferase activity, inhibitor, UDP-Glo glucosyltransferase luminescence		together with: Rac1 and UDP-glucose		Ki	729 µM
CC(=O)O[C@@H]1[C@H](N)[C@@H](OP(=O)(O)O)[C@@]2(C(=O)O)CS[C@@](O)(C(N)=O)[C@@H]1O2	DNA-directed RNA polymerase subunit beta' / DNA-directed RNA polymerase subunit beta (rpoC/rpoB, Escherichia coli, UniProt P0A8T7+P0A8V2)	binding to elongation complex, 6-MI fluorescence titration	wild-type RNAP	2′-deoxy RNA 3′-end Cytosine		Kd	3.8 ± 1.1 µM
Cn1cnc(Cn2c(=O)[nH]/c(=N\c3cc4cn(C)nc4cc3Cl)n(Cc3cc(F)c(F)cc3F)c2=O)n1	Cytochrome P450 2B6 (CYP2B6, Homo sapiens, UniProt P20813)	inhibitor	human liver microsomes	30 min preincubation, preincubation without NADPH, together with: efavirenz 5 µM		IC50	> 100 µM
O=c1cc(-c2ccc(O)cc2)oc2cc(O)c(O)c(O)c12	Spike glycoprotein	binding, BLI				Kd	52.3 µM
CC[C@H](C)[C@H](NC(=O)[C@H](CC(C)C)NC(=O)[C@H](CO)NC(=O)[C@H](Cc1c[nH]cn1)NC(=O)[C@@H](NC(=O)[C@H](CC(C)C)NC(=O)[C@H](CO)NC(=O)[C@@H](NC(=O)[C@H](Cc1ccc(O)cc1)NC(=O)[C@H](CC(N)=O)NC(=O)[C@H](CC(N)=O)NC(=O)[C@@H](NC(=O)[C@H](CCC(=O)O)NC(=O)[C@H](CCCNC(=N)N)NC(=O)[C@H](CC(=O)O)NC(=O)[C@H](Cc1c[nH]c2ccccc12)NC(=O)[C@H](CCC(=O)O)NC(=O)[C@H](CCSC)NC(=O)[C@H](Cc1c[nH]c2ccccc12)NC(C)=O)[C@@H](C)CC)[C@@H](C)O)[C@@H](C)CC)C(=O)N[C@@H](CCC(=O)O)C(=O)N[C@@H](CCC(=O)O)C(=O)N[C@@H](CO)C(=O)N[C@@H](CCC(N)=O)C(=O)N[C@@H](CC(N)=O)C(=O)N[C@@H](CCC(N)=O)C(=O)N[C@@H](CCC(N)=O)C(=O)N[C@@H](CCC(=O)O)C(=O)N[C@@H](CCCCN)C(=O)N[C@@H](CC(N)=O)C(=O)N[C@@H](CCC(=O)O)C(=O)N[C@@H](CCC(N)=O)C(=O)N[C@@H](CCC(=O)O)C(=O)N[C@@H](CC(C)C)C(=O)N[C@@H](CC(C)C)C(=O)NCC(=O)N[C@@H](CO)C(=O)NCC(=O)N[C@@H](CSCC(=O)O[C@H]1CC[C@@]2(C)C(=CC[C@H]3[C@@H]4CC[C@H]([C@H](C)CCCC(C)(C)O)[C@@]4(C)CC[C@@H]32)C1)C(N)=O	human erythrocytes	membrane binding, di-8-ANEPPS dipole potential				Kd	0.43 ± 0.11 µM
B1 (cytochrome c peroxidase H52E)	cyanide binding	spectrophotometric titration		pH 6.0, 25 °C, together with: cyanide		Kd	100 µM
CC(C)=CCC/C(C)=C/CC/C(C)=C/CC/C(C)=C/CC1=C(C)C(=O)c2ccccc2C1=O	Spike glycoprotein	binding, BLI				Kd	87.4 µM
CNC(=O)[C@@H](NC(=O)[C@H](CC(C)C)[C@H](O)C(=O)NO)C(C)(C)C	human fibrinogen	SDS-PAGE	Daboia russelii	concentration not given, unit not given, together with: GA venom	relative to: untreated fibrinogen	remaining fibrinogen Bβ chain	0.805
Cn1cnc(Cn2c(=O)[nH]/c(=N\c3cc4cn(C)nc4cc3Cl)n(Cc3cc(F)c(F)cc3F)c2=O)n1			human, moderate renal impairment, plasma	oral, 375 mg single dose		terminal half-life	54.7 h

For quick reference, copied from above:
Molecule	target or system	assay	test system	conditions	how to read	quantity	value
CC[C@H](C)[C@H](NC(=O)[C@H](CC(C)C)NC(=O)[C@H](Cc1c[nH]c2ccccc12)NC(=O)[C@H](CCC(N)=O)NC(=O)[C@@H](NC(=O)[C@H](Cc1ccccc1)NC(=O)[C@H](C)NC(=O)[C@H](CCCCNC(=O)COCCOCCNC(=O)COCCOCCNC(=O)CC[C@H](NC(=O)CCCCCCCCCCCCCCCCCCC(=O)O)C(=O)O)NC(=O)[C@H](CCC(N)=O)NC(=O)[C@H](C)NC(=O)[C@@H](NC(=O)[C@H](CCCCN)NC(=O)[C@H](CC(=O)O)NC(=O)[C@H](CC(C)C)NC(=O)C(C)(C)NC(=O)[C@@H](NC(=O)[C@H](CO)NC(=O)[C@H](Cc1ccc(O)cc1)NC(=O)[C@H](CC(=O)O)NC(=O)[C@H](CO)NC(=O)[C@@H](NC(=O)[C@H](Cc1ccccc1)NC(=O)[C@@H](NC(=O)CNC(=O)[C@H](CCC(=O)O)NC(=O)C(C)(C)NC(=O)[C@@H](N)Cc1ccc(O)cc1)[C@@H](C)O)[C@@H](C)O)[C@@H](C)CC)[C@@H](C)CC)C(C)C)C(=O)N[C@@H](C)C(=O)NCC(=O)NCC(=O)N1CCC[C@H]1C(=O)N[C@@H](CO)C(=O)N[C@@H](CO)C(=O)NCC(=O)N[C@@H](C)C(=O)N1CCC[C@H]1C(=O)N1CCC[C@H]1C(=O)N1CCC[C@H]1C(=O)N[C@@H](CO)C(N)=O			healthy human subjects, serum	1.5 mg multiple ascending, baseline		total ALT	33.7 ± 18.5 U/L
CSCC[C@H](N)C(=O)N[C@@H](CC(=O)O)C(=O)N[C@H](C(=O)N[C@@H](CCC(N)=O)C(=O)N[C@@H](Cc1c[nH]c2ccccc12)C(=O)N[C@@H](CCCNC(=N)N)C(=O)N[C@@H](CCCNC(=N)N)C(=O)N[C@@H](Cc1c[nH]c2ccccc12)C(=O)O)[C@@H](C)O	Toxin B, glucosyltransferase domain (Clostridioides difficile, UniProt A0A9R0CDJ3)	glucosyltransferase activity, inhibitor, UDP-Glo glucosyltransferase luminescence		together with: Rac1 and UDP-glucose		Ki	729 µM
